Published values from different studies.
Compare with care: the assays were run in different laboratories. Numbers after ± are the reported error.

`CC/C=C\C/C=C\C/C=C\C/C=C\C/C=C\C/C=C\CCC(=O)Nc1ccn(C2OC(CO)C(O)C2(F)F)c(=O)n1` (centres unmarked) gave a TGI of 0.538 µM (SF-539; NCI60 screen).
With `CCCC(CCC)C(=O)[O][Pt]([NH2])([NH2])([Cl])([Cl])[O]C(=O)C(C)c1ccc(CC(C)C)cc1` (centres unmarked) the resistance factor was 1.2 (C13 and 2008; cytotoxicity, MTT; reference: IC50 C13 over IC50 2008).
`COc1cc(CNC(=O)C[C@H](C)CCC=C(C)C)ccc1OCc1cn(-c2cccc([N+](=O)[O-])c2)nn1` has a growth of 85.6% (CCRF-CEM; SRB; 10 µM, 48 h).
The inhibition of `O=C1Nc2ccccc2/C1=N\Nc1nnc2n1N=C(c1ccc(Cl)cc1)CS2` is reported as 14% (Hs-578T; cell growth or viability, SRB; 10 µM).
Under “lowest active concentration”, `CCOC(=O)c1cc2cc(C(=O)N3CCN(CCOc4ccccc4)CC3)ccc2[nH]1` is recorded as 1 µM (HEK293 NRF2 luciferase reporter; NRF2 reporter gene, activator; 18 h; reference: control).
For `COc1cc(CNC(=O)C[C@H](C)CCC=C(C)C)ccc1OCc1cn(-c2ccc([N+](=O)[O-])cc2)nn1`, the growth percent was 43.1% (SF-539 CNS cancer cells; SRB; 10 µM, 48 h).
`COc1ccc([C@@H]2CC(=O)c3c(O)cc(O[C@@H]4O[C@H](CO[C@@H]5O[C@@H](C)[C@H](O)[C@@H](O)[C@H]5O)[C@@H](O[C@H]5O[C@H](CO)[C@@H](O)[C@H](O)[C@H]5O)[C@H](O)[C@H]4O)cc3O2)cc1O` gave an invasion of 26 ± 3.13% (A549; Matrigel Transwell invasion; 150 µg/mL, 24 h).
For `C=C(C)[C@@H]1CC[C@]2(C(=O)OCO/N=[N+](\[O-])N3CCCC3)CC[C@]3(C)[C@H](CC[C@@H]4[C@@]5(C)CC[C@H](OC(C)=O)C(C)(C)[C@@H]5CC[C@]43C)[C@@H]12`, “cells in G2 phase” read 9.95% (B16-F10; PI flow cytometry; 0.50 µM).
`O=Cc1c(O)ccc2ccccc12` — result for mRNA level: “no effect” (HUVEC; qPCR, item: KRIT1, HEG1; 75 µM, 4 h).
Under phospho-H2AX level, `CCCCCCCCN(CCC(=O)Nc1ccccc1)C(=O)c1ccccn1` is recorded as “decreased” (HGPS fibroblasts; 2 µM, 10 days).
For `COC(=O)c1ccccc1-c1c2ccc(=O)cc-2oc2cc(OCCCCCCCC[P+](c3ccccc3)(c3ccccc3)c3ccccc3)ccc12`, the fluorescence ratio was 0.521 ± 0.042 (HeLa cells; confocal microscopy; mitochondria; 100 nM; reference: MitoTracker Deep Red).
`C=CC(=O)Oc1ccc(Cl)cc1C(=O)Nc1ccc([N+](=O)[O-])cc1Cl`: PSA level “decreased” (C4-2B MDVR cells; ELISA; 1 µM, 48 h, FBS conditions).
With `Cc1ccc(N=C2CC(=O)c3sc(C)nc3C2=O)cc1` the effective concentration was less than 5 µM (HEK-293T; H4K20me1 level, inhibitor, western blot; 24 h).
`CCN(CC)CCNC(=S)Nc1ccc2nc(N3CCN(CC)CC3)cc(C)c2c1`: “cells without foci” 71.9 ± 4.1% (BCR-ABL1+ BRCA1-deficient 32Dcl3; item: GFP-RAD52 foci; 2.5 µM, added: cisplatin).
`COc1cc(C(=O)c2[nH]c(N)nc2-c2cccs2)cc(OC)c1OC` gave a mitotic index of 23 ± 2.2 (HeLa cells; Hoechst staining; 200 nM).
`COc1cccc2c1C(=O)c1c(O)c3c(c(O)c1C2=O)CC(O)(C(=O)CO)CC3OC1CC(NC(=O)CCC2=C(C)C(=O)C=C(C(C)C)C2=O)C(O)C(C)O1` (centres unmarked): “intracellular ROS level” “increased” (human dermal fibroblasts; DCFDA fluorescence; concentration not given, 4 h; reference: DMSO).
`COc1cc(/C=C/C(=O)O)ccc1O` gave an inhibition of 68.3% (BV-2; TNF-α release, inhibitor, ELISA; 5 µM, LPS-stimulated).
`COc1cc(O)cc2c1-c1ccc(O)c(OC)c1CC2`: cytokine release “decreased” (BV-2; ELISA, item: MCP-1; concentration not given, pretreatment, added: LPS).
Under acetylation, `CN1CCN(C(=O)N(CCCCCCC(=O)NO)c2ccc(-c3ccc4cnn(C)c4c3)cc2)CC1` is recorded as “increased” (MM1.S; immunoblot, item: histone H3 and H4; 30 to 1000 nM, 6 h).
`CC(=O)OC[C@H]1O[C@@H](Sc2sc(C(=O)c3ccc(C)cc3)c(N)c2-c2nc3ccccc3s2)[C@H](OC(C)=O)[C@@H](OC(C)=O)[C@H]1OC(C)=O` has a growth of 98.6% (SK-MEL-2; SRB; 10 µM, 48 h; reference: untreated).
Under “maximal viability inhibition”, `O=C(CCCCC1SCC2NC(=O)NC21)NCCCCC1CNC(=O)C(=O)N1CC1CCCN1CC(CC1CCCCC1)N1CC(Cc2ccc(O)cc2)N(CCc2ccccc2)C(=O)C1=O` (centres unmarked) is recorded as 42% (WM 266-4; CellTiter-Glo; 100 µM, 72 h).
The growth percent of `COc1cc(CNC(=O)C[C@H](C)CCC=C(C)C)ccc1O` is reported as 98.7% (U-251 CNS cancer cells; SRB; 10 µM, 48 h).
`CC(=O)Oc1ccccc1C(=O)[O][Pt]([NH2])([NH2])([Cl])([Cl])[O]C(=O)C(Cl)Cl`: “mean IC50 ratio” roughly 5 (six human cancer cell lines; MTT; reference: oxaliplatin over compound).
`Cc1cc2[nH]c(C(=O)Nc3ccccc3C)c(CN3CCOCC3)c2s1` gave an inhibition of less than 50% (human Fibroblast; cell growth or viability, SRB; 100 µM).
`O=C1OCC2=C1C(c1cccc(Br)c1)C1=C(N2)C(=O)c2ccccc2C1=O` (centres unmarked) — result for “total apoptotic cells”: 11.9% (SK-LU-1 cells; annexin V/PI; 0.16 µM, 24 h).
`C[N+]1(CC(=O)OC2CCCCCCCCCCC2)CCCCC1` gave an ED50 of 6.3 µM (LNCaP expressing AR-V7; cell viability, CellTiter-Blue; 96 h).
`CCc1noc(CC)c1C(=O)O[C@H]1C(C)=C[C@]23C(=O)[C@@H](C=C(CO)[C@@H](O)[C@]12O)[C@H]1[C@@H](C[C@H]3C)C1(C)C` — result for “complete growth arrest concentration”: roughly 100 nM (human primary epidermal keratinocytes; CyQUANT DNA content; 72 h).
The cytokine level of `CC(=O)N[C@H](C(=O)N[C@H](C(=O)N[C@@H](CCCNC(=N)N)C(=O)N1Cc2ccccc2C[C@H]1C(=O)N[C@@H](Cc1ccccc1)C(N)=O)C1CCCCC1)C(C)C` is reported as less than 23.5 pg/mL (MBP-specific BC-3 T cells; Bio-Plex multiplex, item: Eotaxin; 200 µg/mL, 24 h, added: MBP87-99 antigen).
The inhibition of `CC[C@@]12CC(O)c3[nH]c4ccccc4c3CCN(C[C@H]3O[C@H]31)C2` (some centres unmarked) is reported as 50 ± 4.7% (BV-2; NO production; 25 µM, 1 h, 24 h stimulation, added: LPS 800 ng/mL; reference: LPS control).
The growth percent of `COc1cc(CNC(=O)C[C@H](C)CCC=C(C)C)ccc1OCc1cn(-c2ccccc2Cl)nn1` is reported as 53.3% (SK-MEL-2 melanoma cells; SRB; 10 µM, 48 h).
Under “increase in dual-inactive cells”, `O=C1NCC(Cc2ccccc2)N(CC2CCCN2CC(CC2CCCCC2)N2CC(Cc3ccc(O)cc3)N(CCc3ccccc3)C(=O)C2=O)C1=O` (centres unmarked) is recorded as roughly 10% (WM 266-4; MAPK and PI3K activation, flow cytometry; concentration not given, 48 h; reference: untreated).
For `CCc1nnc(NS(=O)(=O)c2ccc(NC(=S)NC(=O)/C=C/c3ccc(F)cc3)cc2)s1`, colony density read “no effect” (SK-N-AS EP2 knock-out; 10 µM).
`COc1cc(CNC(=O)C[C@H](C)CCC=C(C)C)ccc1OCc1cn(-c2ccccc2[N+](=O)[O-])nn1` gave a growth percent of 66.3% (SK-MEL-2 melanoma cells; SRB; 10 µM, 48 h).
`Cc1nc(C)c(C=[N+]([O-])C(C)(C)C)nc1C` gave an apoptotic cells of 31.3 ± 3.18% (rat cerebellar granule neurons; TUNEL staining; 300 µM, 2 h, added: 150 µM MPP+ for 24 h).
`NC(=O)[C@@H](O)C[C@H]1CCc2sc3ncnc(O[C@H]4CC[C@H](N5CCOCC5)CC4)c3c21`: viability “no effect” (GCB DLBCL lines, wild-type MYD88; concentration not given, 4 d).
For `COc1cc2c(cc1C)NC(=O)C2=Cc1c(Cl)[nH]c2c1ccc1ccccc12`, the TGI was 4.37 µM (breast cancer subpanel of NCI-60; 48 h).
For `COc1cc(CNC(=O)C[C@H](C)CCC=C(C)C)ccc1OCc1cn(-c2ccc(Cl)cc2Cl)nn1`, the growth percent was 71.7% (SK-MEL-2 melanoma cells; SRB; 10 µM, 48 h).
`COc1cc2c(C=C3C(=O)Nc4ccccc43)c[nH]c2cc1C` gave a TGI of 6.76 µM (breast cancer subpanel of NCI-60; 48 h).
`CC(Cc1ccc(Cl)cc1)=C(c1ccc(Cl)cc1)c1ccc(OCCN(C)C)cc1` gave a GI50 of 4.77 µM (SF-539; cell growth or viability, SRB).
The phototherapeutic index of `[Ru+2].c1ccc(-c2ccc3c(n2)c2ncccc2c2nc4cc5ccccc5cc4nc32)nc1.c1ccc(-c2ccc3c(n2)c2ncccc2c2nc4cc5ccccc5cc4nc32)nc1` is reported as greater than 36 (M2 murine macrophages; reference: dark EC50 over light EC50).
`CCCC[C@H](NC(=O)[C@H](Cc1ccccc1)NC(=O)[C@H](Cc1c[nH]cn1)NC(=O)CCNC(=O)[C@@H](NC(=O)[C@H](C)NC(=O)[C@H](Cc1c[nH]c2ccccc12)NC(=O)[C@H](CCC(N)=O)NC(=O)[C@H](N)Cc1ccc(O)cc1)C(C)C)C(N)=O`: “EGFR tyrosine phosphorylation” “increased” (NCI-H1299 expressing BRS-3; EGFR transactivation, Western blot; 100 nM).
Under “time to majority cell death”, `Cc1cc(N)c2ccccc2[n+]1CCCCCCCCCCCCCC[n+]1c(C)cc(N)c2ccccc21` is recorded as 72 h (NB12 neuroblastoma tumour-initiating cells; trypan blue exclusion; concentration not given).
`COc1ccc2c(c1)C(=C1Nc3ccccc3C1=NOCC(O)CO)C(=O)N2` (centres unmarked) — result for phosphorylation: “decreased” (PANC-1, MIA PaCa-2, BxPC-3, AsPC-1; Western blot, item: STAT3 pTyr705; 5 µM, 4 h).
With `COc1cc(CNC(=O)C[C@H](C)CCC=C(C)C)ccc1OCc1cn(-c2ccc(F)cc2)nn1` the growth percent was 68.4% (SF-539 CNS cancer cells; SRB; 10 µM, 48 h).
With `COc1ccc([C@@H]2CC(=O)c3c(O)cc(O[C@@H]4O[C@H](CO[C@@H]5O[C@@H](C)[C@H](O)[C@@H](O)[C@H]5O)[C@@H](O)[C@H](O)[C@H]4O)cc3O2)cc1O` the gap closure was 4.65 ± 0.45% (A549; cell migration, scratch; 150 µg/mL, 24 h).
For `CC(=O)OC[C@H]1O[C@@H](Sc2sc(C(=O)c3ccc(Br)cc3)c(N)c2-c2nc3ccccc3s2)[C@H](OC(C)=O)[C@@H](OC(C)=O)[C@H]1OC(C)=O`, the growth was 95.4% (Hs-578T; SRB; 10 µM, 48 h; reference: untreated).
For `COc1cc(CNC(=O)C[C@H](C)CCC=C(C)C)ccc1OCc1cn(-c2cccc(C(F)(F)F)c2)nn1`, the growth percent was 16.4% (SF-539 CNS cancer cells; SRB; 10 µM, 48 h).
With `COc1ccc(NC(=O)CCc2nc3cc(Cl)ccc3[nH]c2=O)cc1` the selectivity index was 19.2 (MCF7; MTT; reference: WI-38 IC50 over MCF7 IC50).
`N#Cc1cccc(-c2ccc(=O)n(Cc3cccc(-c4ncc(OCC5CCN(CC(=O)NCCOCCNc6ccc7c(c6)C(=O)N(C6CCC(=O)NC6=O)C7=O)CC5)cn4)c3)n2)c1` (centres unmarked) has an apoptotic cells of 43.6% (EBC-1; annexin V flow cytometry; 10 nM, 48 h).
For `O=C(Nc1ccccc1)c1ccc(Nc2nnc(-c3ccc(O)cc3)c3ccccc23)cc1`, anandamide uptake read “no effect” (FAAH-1 knock-out mouse cortical neurons; 10 µM, 3 h, added: [3H]-anandamide).
